Measured values of several laboratories.
Parts stem from different laboratories: compare values within a part only. Substitutions count along the parent as printed.

Series 1 — technique: protein binding microarray; molecule type: double-stranded DNA, one strand shown; matrix: in vitro; concentration: not given; reference: not given; direction: higher = stronger binding; endpoint: E-score
Target: Histone acetyltransferase KAT6A, winged helix 2, GST fusion (KAT6A, Homo sapiens, UniProt Q92794, residues 85-181)
Notes: 8-mer, flanks averaged, mean of 2 arrays, mostly near background
Target sequence (chain): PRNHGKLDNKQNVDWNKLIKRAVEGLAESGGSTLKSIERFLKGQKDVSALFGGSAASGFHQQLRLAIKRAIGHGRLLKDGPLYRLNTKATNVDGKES
GAATTGAC: 0.0668
ACTACAGA: -0.00337
ACCGACGC: 0.0833
CAATTGCA: -0.135
TACGGAAA: -0.144
AGTGAAAG: 0.114
AGGACTAC: -0.159
ACTGGATA: 0.0246
CTCAGCCA: -0.187
CCACAAAC: 0.203
GTGCGCCA: 0.0315
CGCCCGAA: 0.0652

Series 2 — target: CCNA1, cyclin fold, Cln2 fusion (human); technique: yeast growth competition, sequencing; matrix: yeast; notes: weak parent motif; reference: not given; direction: higher = stronger binding; endpoint: normalised enrichment score
Starting sequence: ORC1 docking peptide (human); PRARKRLELGNLG; partner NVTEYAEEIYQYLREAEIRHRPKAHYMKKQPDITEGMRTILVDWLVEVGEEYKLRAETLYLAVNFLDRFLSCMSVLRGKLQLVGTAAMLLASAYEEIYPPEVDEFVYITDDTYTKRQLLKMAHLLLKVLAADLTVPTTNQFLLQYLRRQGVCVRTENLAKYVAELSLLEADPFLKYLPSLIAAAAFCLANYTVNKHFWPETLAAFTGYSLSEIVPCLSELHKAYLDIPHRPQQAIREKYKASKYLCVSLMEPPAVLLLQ
PRARKRLELGMLG [N11M]: 0.69
PRARKHLELGNLG [R6H]: 0.381
PRARKRLELGNLW [G13W]: -0.0899
PRARKRIELGNLG [L7I]: 0.509
PRARKRLELGNNG [L12N]: 0.498
PRARCRLELGNLG [K5C]: 0.438
PRARKRLELGNLL [G13L]: 0.101
PRARKRLELGNLT [G13T]: 0.247

Series 3 — technique: universal PBM; molecule type: double-stranded DNA, one strand shown; matrix: in vitro; concentration: not given; direction: higher = stronger binding; endpoint: E-score
Target: Sal-like protein 4, full length isoform B (SALL4, Homo sapiens, UniProt Q9UJQ4-2, residues 1-616)
Notes: 8-mer, flanks averaged, mean of replicates
CGATTAAA: 0.228
CAGCTCGC: -0.198
GCTATGCC: -0.0937
CCACTCTC: -0.136
CTTTGCCA: -0.0347
GGGGCCTA: -0.321
GGCTTGGA: -0.211
CATCCCAG: -0.0824

Single results of other studies
PhoQ, residues 284 288 289 292 302 303 AGGCYF
fold induction (PhoP, residues 12 14 15 18 19 NQGLL (Escherichia coli, UniProt P23836); Sort-seq, item: YFP reporter; E. coli; PhoQ-PhoP variant library, with: 10 µM Mg2+; reference: high Mg2+ state, higher = stronger signaling): 8.47

For quick reference, copied from above (series 2):
PRARKRLELGNNG [L12N]: 0.498
PRARKRLELGNLW [G13W]: -0.0899
PRARKRLELGNLT [G13T]: 0.247
PRARCRLELGNLG [K5C]: 0.438
